Published values from different studies.
Parts stem from different laboratories: compare values within a part only.
Chain of UniProt Q8S8P5 (169-264, looked up): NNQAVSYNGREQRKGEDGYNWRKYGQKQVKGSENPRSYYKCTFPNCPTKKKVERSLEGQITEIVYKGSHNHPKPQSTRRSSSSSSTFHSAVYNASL

Set 1
Target: Transcriptional repressor CTCF (CTCF, Homo sapiens, UniProt P49711, residues 1-727, full length assumed)
Chain of UniProt P49711 (whole entry, looked up): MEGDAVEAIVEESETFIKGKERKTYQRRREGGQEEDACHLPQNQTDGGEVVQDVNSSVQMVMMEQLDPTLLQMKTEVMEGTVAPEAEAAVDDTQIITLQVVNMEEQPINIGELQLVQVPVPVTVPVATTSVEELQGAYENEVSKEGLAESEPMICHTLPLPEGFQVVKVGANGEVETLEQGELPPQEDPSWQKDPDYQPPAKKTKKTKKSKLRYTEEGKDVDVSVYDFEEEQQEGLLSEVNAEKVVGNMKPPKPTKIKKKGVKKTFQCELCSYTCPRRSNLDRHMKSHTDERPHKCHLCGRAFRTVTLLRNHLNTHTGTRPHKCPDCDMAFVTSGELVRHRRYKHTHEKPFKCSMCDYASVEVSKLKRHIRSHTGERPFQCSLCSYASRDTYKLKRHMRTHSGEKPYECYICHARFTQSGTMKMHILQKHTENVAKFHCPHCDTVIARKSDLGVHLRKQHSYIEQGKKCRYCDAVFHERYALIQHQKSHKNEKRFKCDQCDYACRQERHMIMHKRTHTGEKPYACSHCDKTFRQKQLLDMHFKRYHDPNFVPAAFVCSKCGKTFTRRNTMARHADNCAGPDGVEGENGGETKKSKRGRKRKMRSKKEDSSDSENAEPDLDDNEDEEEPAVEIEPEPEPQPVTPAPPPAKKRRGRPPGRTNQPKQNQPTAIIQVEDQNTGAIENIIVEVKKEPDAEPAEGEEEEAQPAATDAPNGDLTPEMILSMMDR
Method: protein-binding microarray
Molecule type: double-stranded DNA, one strand shown
Matrix: in vitro
Tested at: not given
Setting: k-mer, scored over probes, only values ≥0.25
Direction: higher = stronger binding
Quantity: E-score
Oligonucleotide = GAGCGCGC; result = 0.269
Oligonucleotide = AGTTTTAC; result = 0.295
Oligonucleotide = CGCAATAC; result = 0.315
Oligonucleotide = TATAATAA; result = 0.347
Oligonucleotide = ATACACAA; result = 0.282
Oligonucleotide = ATAAATAA; result = 0.331
Oligonucleotide = AACAATCC; result = 0.28
Oligonucleotide = AGTTATAT; result = 0.285

Set 2
Organism: Vesicular stomatitis virus
Read-out: pseudovirus infection
Method: FDA-approved drug library screen
Tested at: concentration not given
Setting: SARS-CoV-2 spike pseudotype
Relative to: vehicle
Quantity: GFP-positive cells
SMILES = Cc1ccc(NC(=O)C2(c3ccc4c(c3)OC(F)(F)O4)CC2)nc1-c1cccc(C(=O)O)c1; result = 64.3%
SMILES = CC(C)NCC(O)COc1ccc(COCCOC(C)C)cc1.CC(C)NCC(O)COc1ccc(COCCOC(C)C)cc1.O=C(O)/C=C/C(=O)O (racemic); result = 105%
SMILES = COc1ccccc1OCCNCC(O)COc1cccc2[nH]c3ccccc3c12.O=P(O)(O)O (centres unmarked); result = 34.1%
SMILES = CC(=O)OCC(=O)[C@@]1(O)[C@H](C)C[C@H]2[C@@H]3CCC4=CC(=O)C=C[C@]4(C)[C@@]3(F)[C@@H](O)C[C@@]21C; result = 81.8%

Set 3
Target: Replicase polyprotein 1ab, main protease (rep, Severe acute respiratory syndrome coronavirus 2, UniProt P0DTD1)
Read-out: enzyme activity
Action: inhibitor
Setting: without DTT
Quantity: IC50
SMILES = COc1cc(N(C)C)cc(CN(C)CCc2ccc([N+](=O)[O-])cc2)c1O; result = 6.1 µM
SMILES = CN(C)CCNc1nc2cc(O)ccc2c2c1C(=O)c1ccccc1-2; result = 3 µM
SMILES = Oc1ccc(C2CNCCc3c2cc(O)c(O)c3Cl)cc1 (centres unmarked); result = > 20 µM
SMILES = CC(Cc1ccc(O)c(O)c1)C(C)Cc1ccc(O)c(O)c1 (centres unmarked); result = > 20 µM

Set 4
Target: Replicase polyprotein 1ab, polymerase (rep, Severe acute respiratory syndrome coronavirus 2, UniProt P0DTD1)
Read-out: enzyme activity
Action: inhibitor
Tested at: 20 µM
Quantity: inhibition
SMILES = CCCCCCCCCCCCCCCC[N+](C)(C)Cc1ccccc1; result = 11.5%
SMILES = Cc1cc(C(=O)Nc2cccc(C(=O)Nc3cccc(C(F)(F)F)c3)c2)on1; result = -0.55%
SMILES = CCCCN1CCC(CNC(=O)c2c3n(c4ccccc24)CCCO3)CC1; result = -12.9%
SMILES = NCCCNCCCCNCCCN; result = -5.23%
SMILES = CC(O)(P(=O)(O)O)P(=O)(O)O; result = -10.7%
SMILES = COc1cc(CCc2cc(NC(=O)c3ccc(N4C[C@@H](C)N[C@@H](C)C4)cc3)n[nH]2)cc(OC)c1; result = -2.92%
SMILES = Cc1cnc(NC(=O)Nc2cc(Br)c(C)cc2OC[C@@H]2CNCCO2)cn1; result = 2.21%
SMILES = Cc1sc(C)c2c1CCC=C2c1cnc[nH]1; result = -1.85%
SMILES = O=C1c2ccccc2C(Cc2ccnc(F)c2)(Cc2ccnc(F)c2)c2ccccc21; result = -4.21%
SMILES = O=C(O)CCCc1c[nH]c2ccccc12; result = -6.37%
SMILES = C[C@H]1COc2c(C3(N)CC3)c(F)cc3c(=O)c(C(=O)O)cn1c23; result = -7.03%
SMILES = Cc1[nH]c(/C=C2\C(=O)Nc3ccc(F)cc32)c(C)c1C(=O)NCCN1CCCC1; result = 13.6%
SMILES = C=C1C[C@@]2(O)O[C@@]3(C[C@H]2C(C)C)[C@@H](C)CC[C@@H]13; result = -2.9%
SMILES = CC(C)n1nccc1-c1ncccc1COc1cccc(O)c1C=O; result = 6.01%
SMILES = O=C(CN1CCNCC1)NC1CCCCC1; result = 0.24%
SMILES = COc1c(O)cc2c(c1O)[C@@H]1O[C@H](CO)[C@@H](O)[C@H](O)[C@H]1OC2=O; result = 9.41%
SMILES = C[C@@H]1C[C@H]2[C@@H]3C[C@H](F)C4=CC(=O)C=C[C@]4(C)[C@@]3(Cl)[C@@H](O)C[C@]2(C)[C@H]1C(=O)COC(=O)C(C)(C)C; result = 1.42%
SMILES = NCCCC(N)(C(=O)O)C(F)F (centres unmarked); result = -3.19%
SMILES = FC(F)(F)Oc1ccc2nc(-c3ccc(OCCOCCOc4ccc(-c5nc6ccc(OC(F)(F)F)cc6[nH]5)nc4)cn3)[nH]c2c1; result = 7.6%
SMILES = CC(C)(C)C(=O)OCOP(=O)(COCCn1cnc2c(N)ncnc21)OCOC(=O)C(C)(C)C; result = -0.43%
SMILES = O=C(O)c1ccc(N2N=C(Cc3ccccc3)/C(=C\c3ccc(-c4ccccc4F)o3)C2=O)cc1; result = 1.19%
SMILES = c1cn2cc(-c3ccc4cn[nH]c4c3)nc(Nc3ccc(N4CCOCC4)cc3)c2n1; result = -4.61%
SMILES = CC(C)=CCC/C(C)=C/CC/C(C)=C/CSc1ccccc1C(N)=O; result = -4.57%
SMILES = Cn1nc(-c2ccc(C(F)(F)F)cc2)nc2c(=O)n(C)c(=O)nc1-2; result = 37%
SMILES = Cc1onc(-c2ccccc2)c1-c1ccc(S(N)(=O)=O)cc1; result = -1.49%

Set 5
Target: Interferon regulatory factor 3, full length, phosphomimetic (IRF3, Homo sapiens, UniProt Q14653, residues 1-427, S386D/S396D/S398D/S402D/T404D/S405D)
Method: protein-binding microarray
Molecule type: double-stranded DNA, one strand shown
Matrix: in vitro
Tested at: 2540 nM top
Setting: 60-bp whole probe
Together with: salmon DNA 0.4 mg/ml
Relative to: random background probes
Direction: higher = stronger binding
Quantity: fitted relative affinity
Shared flanks, not repeated: GCCTAGCAC … GTCTTGATTCGCTTGACGCTGCTG
Target sequence (chain): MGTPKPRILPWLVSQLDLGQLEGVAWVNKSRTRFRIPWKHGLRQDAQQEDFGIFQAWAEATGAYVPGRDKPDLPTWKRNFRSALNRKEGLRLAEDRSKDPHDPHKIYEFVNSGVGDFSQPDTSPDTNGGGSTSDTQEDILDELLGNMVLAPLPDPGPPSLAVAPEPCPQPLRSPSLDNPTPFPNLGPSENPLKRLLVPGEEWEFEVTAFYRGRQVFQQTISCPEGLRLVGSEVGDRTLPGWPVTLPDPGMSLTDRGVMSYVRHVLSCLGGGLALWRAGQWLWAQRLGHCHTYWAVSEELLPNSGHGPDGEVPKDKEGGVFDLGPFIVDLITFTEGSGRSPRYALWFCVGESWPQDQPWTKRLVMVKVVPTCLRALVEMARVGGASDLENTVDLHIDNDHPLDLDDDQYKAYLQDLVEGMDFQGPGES
Oligonucleotide = TTAGACCTGGGGTATCGATTAGTGCTA; result = -0.635 z-score
Oligonucleotide = GACGATCTCAGTCTCGTGACGTGCTAG; result = 0.783 z-score
Oligonucleotide = TTAGTTCTCCTTCTCCTTTAGTGCTAG; result = 4.68 z-score
Oligonucleotide = TTAGATATCGGGTATCGACTAGTGCTA; result = -0.0695 z-score
Oligonucleotide = GACCATATCGGGACTGGAGACGTGCTA; result = 0.869 z-score
Oligonucleotide = TTAAATATCAGACTGGATTAGTGCTAG; result = 0.207 z-score
Oligonucleotide = TTAGGTATCATACTGCTTTAGTGCTAG; result = 1.7 z-score
Oligonucleotide = TTAGTTTTCGACTATCGGTTAGTGCTA; result = 2.68 z-score

Mixed results
Oligonucleotide = AAAAAACAGGCCGATTCCGATCCCGGAAAA; target = Probable WRKY transcription factor 33, N-terminal DNA-binding domain (WRKY33, Arabidopsis thaliana, UniProt Q8S8P5, residues 169-264); test = DNA-protein interaction ELISA; test system = double-stranded DNA, one strand shown, in vitro, bacterial lysate; setting = not given, whole dsDNA probe, crude lysate protein; scale = relative to: highest signal in screen, higher = stronger binding; quantity = relative absorbance; result = 17.6 % of maximum

For quick reference, copied from above (set 4):
SMILES = Cc1onc(-c2ccccc2)c1-c1ccc(S(N)(=O)=O)cc1; result = -1.49%
SMILES = CC(O)(P(=O)(O)O)P(=O)(O)O; result = -10.7%
SMILES = COc1cc(CCc2cc(NC(=O)c3ccc(N4C[C@@H](C)N[C@@H](C)C4)cc3)n[nH]2)cc(OC)c1; result = -2.92%
SMILES = CCCCCCCCCCCCCCCC[N+](C)(C)Cc1ccccc1; result = 11.5%
SMILES = COc1c(O)cc2c(c1O)[C@@H]1O[C@H](CO)[C@@H](O)[C@H](O)[C@H]1OC2=O; result = 9.41%
SMILES = NCCCNCCCCNCCCN; result = -5.23%
